Published values gathered from unrelated publications.
Lines come from different studies, so protocols differ. “And” joins repeats or separate records; there may be more than shown.
Organism: Schistosoma mansoni

CC1=C(Cn2cc(CBr)nn2)C(=O)c2ccccc2C1=O — killing (adult worms; 10 µM, 72 h): 44.9%
Cc1ccc(Nc2cnnc3ccc(-c4ccc(N5CCCN(C)CC5)cc4)cc23)cn1 — phenotypic severity score (adult worms; 10 µM, 5 h; direction not given): 1
Nc1cc(F)c(-c2c(Cl)nc(-c3cccs3)nc2NCC2CCC2)c(F)c1 — EC50 (worm motility; adult worms ex vivo; 24 h): < 0.3 µM
COc1ccc(Nc2cnnc3cc(-c4cnc(N5CCN(C)CC5)nc4)ccc23)cc1 — phenotypic severity score (adult worms; 10 µM, 48 h; direction not given): 0
Nc1nc(-c2cccs2)nc(Cl)c1-c1c(F)cc(F)cc1F — EC50 (worm motility; adult worms ex vivo; 24 h): > 5 µM
COc1ccc(Nc2cnnc3ccc(-c4cnc(N5CCCN(C)CC5)nc4)cc23)cc1 — phenotypic severity score (adult worms; 10 µM, 48 h; direction not given): 1
O=C1NC(CF)(CF)C(=O)N1c1ccc(F)c(C(F)(F)F)c1 — worm burden reduction (NMRI mice, infected; oral, 100 mg/kg single dose, 21 days post-treatment, treated day 49 post-infection): 35%
CC1(CNc2nc(-c3cccs3)nc(Cl)c2-c2c(F)cc(C#N)cc2F)COC1 — EC50 (worm motility; adult worms ex vivo; 24 h): 1.5 µM
COc1ccc(Nc2cnnc3cc(-c4cnc(N5CCCN(C)CC5)nc4)ccc23)cc1Cl — phenotypic severity score (adult worms; 10 µM, 1 h; direction not given): 1
Fc1cc(F)c(-c2c(Cl)nc(-c3cccs3)nc2N2CCCCC2)c(F)c1 — EC50 (worm motility; adult worms ex vivo; 24 h): 5 µM
CC1=C(Cn2cc(CN3CCNCC3)nn2)C(=O)c2ccccc2C1=O — killing (adult worms; 25 µM, 72 h): 62.5%
CC1(CNc2nc(-c3cccs3)nc(Cl)c2-c2c(F)cc(N)cc2F)COC1 — EC50 (worm motility; adult worms ex vivo; 24 h): < 0.3 µM
CC1=C(Cc2cn(CCN3CCC(=O)CC3)nn2)C(=O)c2ccccc2C1=O — killing (adult worms; 25 µM, 24 h): 46.5%
Fc1cc(F)c(-c2c(Cl)nc(-c3cccs3)nc2N2CCCC2)c(F)c1 — EC50 (worm motility; adult worms ex vivo; 24 h): > 5 µM
CN1CCN(S(=O)(=O)c2ccc(-c3ccc4nncc(Nc5ncccn5)c4c3)cc2)CC1 — phenotypic severity score (adult worms; 10 µM, 1 h; direction not given): 0
CC1(C(F)(F)F)NC(=O)N(c2ccc(F)c(C(F)(F)F)c2)C1=O (stereo not drawn) — worm burden reduction (juvenile, infected mice; oral, 100 mg/kg single dose): 62 to 100% and 99%
O=C(C1CCCCC1)N1CC(=O)N2CCc3ccccc3C2C1 (stereo not drawn) — male worm burden reduction (mice; 100 mg/kg daily x4, 1176 h, dosed day 7, perfused 49; baseline: vehicle): 44%
CC1=C(Cc2cn(Cc3ccccc3)nn2)C(=O)c2ccccc2C1=O — killing (adult worms; 10 µM, 24 h): 50%
C#Cc1cc(F)c(-c2c(Cl)nc(-c3cccs3)nc2NCC2(C)N=N2)c(F)c1 — EC50 (worm motility; adult worms ex vivo; 24 h): < 0.3 µM
CC1=C(Cn2cc(CN(Cc3ccccc3)Cc3ccccc3)nn2)C(=O)c2ccccc2C1=O — killing (adult worms; 25 µM, 48 h): 46.5%
CC1(C)NC(=O)N(c2cccc(C(F)(F)F)n2)C1=O — worm burden reduction (NMRI mice, infected; oral, 100 mg/kg single dose, 21 days post-treatment, treated day 49 post-infection): 4%
CC1=C(Cn2cc(CN3CCN(C(=O)OC(C)(C)C)CC3)nn2)C(=O)c2ccccc2C1=O — killing (adult worms; 10 µM, 24 h): 41.6%
CN1CCN(c2ccc(-c3ccc4c(Nc5ncccn5)cnnc4c3)cc2)CC1 — phenotypic severity score (adult worms; 10 µM, 5 h; direction not given): 0
CC1(C(F)F)NC(=O)N(c2ccc(F)c(C(F)(F)F)c2)C1=O (stereo not drawn) — worm burden reduction (NMRI mice, infected; oral, 100 mg/kg single dose, 21 days post-treatment, treated day 49 post-infection): 92%
CC1=C(Cn2cnc([N+](=O)[O-])n2)C(=O)c2ccccc2C1=O — killing (adult worms; 25 µM, 72 h): 51.9%
CN1CCN(S(=O)(=O)c2ccc(-c3ccc4c(Nc5ncccn5)cnnc4c3)cc2)CC1 — phenotypic severity score (adult worms; 10 µM, 48 h; direction not given): 0
CC1=C(Cn2cc(CN3CCSC3)nn2)C(=O)c2ccccc2C1=O — killing (adult worms; 25 µM, 72 h): 51.9%
Fc1cc(F)c(-c2c(Cl)nc(-c3cccs3)nc2N2CCOCC2)c(F)c1 — EC50 (worm motility; adult worms ex vivo; 24 h): 1.96 µM
COc1ccc(Nc2cnnc3ccc(-c4ccc(S(=O)(=O)N5CCN(C)CC5)cc4)cc23)cc1Cl — phenotypic severity score (adult worms; 10 µM, 1 h; direction not given): 1
CC1(C)NC(=O)N(c2ccc(F)c(Br)c2)C1=O — worm burden reduction (NMRI mice, infected; oral, 100 mg/kg single dose, 21 days post-treatment, treated day 49 post-infection): 89%

A few entries again:
CN1CCN(S(=O)(=O)c2ccc(-c3ccc4nncc(Nc5ncccn5)c4c3)cc2)CC1 — phenotypic severity score (adult worms; 10 µM, 1 h; direction not given): 0
Nc1cc(F)c(-c2c(Cl)nc(-c3cccs3)nc2NCC2CCC2)c(F)c1 — EC50 (worm motility; adult worms ex vivo; 24 h): < 0.3 µM
CC1=C(Cc2cn(CCN3CCC(=O)CC3)nn2)C(=O)c2ccccc2C1=O — killing (adult worms; 25 µM, 24 h): 46.5%
COc1ccc(Nc2cnnc3ccc(-c4cnc(N5CCCN(C)CC5)nc4)cc23)cc1 — phenotypic severity score (adult worms; 10 µM, 48 h; direction not given): 1
COc1ccc(Nc2cnnc3ccc(-c4ccc(S(=O)(=O)N5CCN(C)CC5)cc4)cc23)cc1Cl — phenotypic severity score (adult worms; 10 µM, 1 h; direction not given): 1
